Results collected from several papers.
A part holds a random share of what one study measured. Several values in a cell are separate wells, animals, samples, runs or records.
UniProt Q16832, sequence (whole entry, looked up): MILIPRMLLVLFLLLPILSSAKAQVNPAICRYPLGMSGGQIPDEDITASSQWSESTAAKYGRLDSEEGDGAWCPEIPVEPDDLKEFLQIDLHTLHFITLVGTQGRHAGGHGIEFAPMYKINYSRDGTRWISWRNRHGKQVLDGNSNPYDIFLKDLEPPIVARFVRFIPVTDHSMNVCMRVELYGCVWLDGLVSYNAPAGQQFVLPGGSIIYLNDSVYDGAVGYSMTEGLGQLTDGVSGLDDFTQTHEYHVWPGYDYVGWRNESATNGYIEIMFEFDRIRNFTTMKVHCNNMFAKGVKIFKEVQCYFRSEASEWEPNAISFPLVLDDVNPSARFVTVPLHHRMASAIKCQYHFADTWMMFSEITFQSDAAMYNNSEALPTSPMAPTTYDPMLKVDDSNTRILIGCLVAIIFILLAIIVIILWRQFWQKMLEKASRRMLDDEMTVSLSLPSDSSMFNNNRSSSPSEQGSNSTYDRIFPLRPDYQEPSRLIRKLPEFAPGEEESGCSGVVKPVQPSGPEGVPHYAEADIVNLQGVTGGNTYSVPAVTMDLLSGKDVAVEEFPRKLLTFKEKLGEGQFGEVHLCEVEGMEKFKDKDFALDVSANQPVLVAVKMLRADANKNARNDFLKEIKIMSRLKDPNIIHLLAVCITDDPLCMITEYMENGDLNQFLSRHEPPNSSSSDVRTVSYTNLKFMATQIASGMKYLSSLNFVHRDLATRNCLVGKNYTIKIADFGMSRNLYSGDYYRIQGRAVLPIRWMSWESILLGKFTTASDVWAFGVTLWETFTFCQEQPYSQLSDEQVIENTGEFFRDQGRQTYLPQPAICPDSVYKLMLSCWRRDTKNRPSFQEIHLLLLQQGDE
UniProt Q16566, sequence (whole entry, looked up): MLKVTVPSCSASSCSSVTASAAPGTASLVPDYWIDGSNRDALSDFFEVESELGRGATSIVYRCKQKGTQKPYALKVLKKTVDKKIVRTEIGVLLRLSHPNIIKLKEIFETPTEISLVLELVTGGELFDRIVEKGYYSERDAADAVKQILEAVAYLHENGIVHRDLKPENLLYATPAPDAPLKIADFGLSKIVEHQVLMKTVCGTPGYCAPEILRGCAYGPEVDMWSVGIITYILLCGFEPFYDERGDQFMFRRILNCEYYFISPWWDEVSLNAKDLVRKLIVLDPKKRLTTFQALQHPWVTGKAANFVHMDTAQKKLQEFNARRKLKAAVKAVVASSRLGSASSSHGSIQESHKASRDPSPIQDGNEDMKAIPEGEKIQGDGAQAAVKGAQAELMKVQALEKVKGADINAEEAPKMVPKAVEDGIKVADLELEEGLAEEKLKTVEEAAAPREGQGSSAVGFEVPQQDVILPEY
UniProt P28482, sequence (whole entry, looked up): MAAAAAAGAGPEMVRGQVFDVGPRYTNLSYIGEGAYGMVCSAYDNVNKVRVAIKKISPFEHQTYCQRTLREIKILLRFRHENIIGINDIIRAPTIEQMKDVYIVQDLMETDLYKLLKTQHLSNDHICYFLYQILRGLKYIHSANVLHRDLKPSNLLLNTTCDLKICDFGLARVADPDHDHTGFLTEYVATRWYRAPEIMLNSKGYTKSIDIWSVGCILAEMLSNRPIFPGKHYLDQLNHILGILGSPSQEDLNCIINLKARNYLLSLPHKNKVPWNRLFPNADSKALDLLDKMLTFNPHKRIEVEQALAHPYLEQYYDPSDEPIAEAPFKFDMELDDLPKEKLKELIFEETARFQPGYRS
UniProt P50750, sequence (whole entry, looked up): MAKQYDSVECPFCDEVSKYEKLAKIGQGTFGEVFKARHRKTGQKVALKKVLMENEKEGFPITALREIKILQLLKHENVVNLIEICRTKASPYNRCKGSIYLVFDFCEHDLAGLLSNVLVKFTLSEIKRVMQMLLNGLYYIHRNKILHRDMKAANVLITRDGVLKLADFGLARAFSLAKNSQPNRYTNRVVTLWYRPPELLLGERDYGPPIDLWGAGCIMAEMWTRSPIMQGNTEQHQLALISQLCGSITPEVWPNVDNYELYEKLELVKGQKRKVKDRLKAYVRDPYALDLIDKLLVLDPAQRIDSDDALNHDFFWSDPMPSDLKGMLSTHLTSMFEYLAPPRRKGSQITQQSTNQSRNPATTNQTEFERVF
UniProt Q8WXR4, sequence (whole entry, looked up): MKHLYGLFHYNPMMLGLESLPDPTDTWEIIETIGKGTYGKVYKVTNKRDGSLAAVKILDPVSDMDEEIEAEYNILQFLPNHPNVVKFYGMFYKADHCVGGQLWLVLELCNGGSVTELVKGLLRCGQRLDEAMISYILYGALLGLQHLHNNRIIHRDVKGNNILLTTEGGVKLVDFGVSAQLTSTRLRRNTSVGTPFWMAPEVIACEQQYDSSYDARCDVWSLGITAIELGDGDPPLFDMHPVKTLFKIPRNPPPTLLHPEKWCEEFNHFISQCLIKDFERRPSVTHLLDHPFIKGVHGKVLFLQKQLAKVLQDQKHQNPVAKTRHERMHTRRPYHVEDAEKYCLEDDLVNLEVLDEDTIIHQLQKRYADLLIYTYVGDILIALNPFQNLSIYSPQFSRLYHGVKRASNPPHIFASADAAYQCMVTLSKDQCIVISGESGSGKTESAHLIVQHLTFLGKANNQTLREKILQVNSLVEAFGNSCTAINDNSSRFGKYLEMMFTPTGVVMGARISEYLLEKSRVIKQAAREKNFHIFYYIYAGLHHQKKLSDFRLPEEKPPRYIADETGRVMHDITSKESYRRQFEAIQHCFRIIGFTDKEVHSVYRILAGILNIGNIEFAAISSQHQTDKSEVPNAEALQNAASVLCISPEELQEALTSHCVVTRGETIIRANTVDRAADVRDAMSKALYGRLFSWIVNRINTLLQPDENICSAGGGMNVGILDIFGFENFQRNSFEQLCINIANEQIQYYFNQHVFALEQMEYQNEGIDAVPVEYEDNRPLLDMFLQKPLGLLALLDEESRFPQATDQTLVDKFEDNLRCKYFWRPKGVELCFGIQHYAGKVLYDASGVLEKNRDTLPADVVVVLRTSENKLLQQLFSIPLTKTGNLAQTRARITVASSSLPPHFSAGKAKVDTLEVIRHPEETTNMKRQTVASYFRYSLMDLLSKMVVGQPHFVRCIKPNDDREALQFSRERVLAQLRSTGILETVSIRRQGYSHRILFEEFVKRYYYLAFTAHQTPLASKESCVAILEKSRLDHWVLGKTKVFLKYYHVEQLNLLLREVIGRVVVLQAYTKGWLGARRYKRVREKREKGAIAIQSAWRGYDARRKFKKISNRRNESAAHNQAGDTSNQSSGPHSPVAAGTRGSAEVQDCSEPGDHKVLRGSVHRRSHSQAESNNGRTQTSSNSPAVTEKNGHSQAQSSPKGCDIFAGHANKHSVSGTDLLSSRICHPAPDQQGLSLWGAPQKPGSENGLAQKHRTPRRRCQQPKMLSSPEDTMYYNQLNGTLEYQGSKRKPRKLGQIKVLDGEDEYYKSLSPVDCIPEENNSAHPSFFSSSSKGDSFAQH
UniProt P32298, sequence (whole entry, looked up): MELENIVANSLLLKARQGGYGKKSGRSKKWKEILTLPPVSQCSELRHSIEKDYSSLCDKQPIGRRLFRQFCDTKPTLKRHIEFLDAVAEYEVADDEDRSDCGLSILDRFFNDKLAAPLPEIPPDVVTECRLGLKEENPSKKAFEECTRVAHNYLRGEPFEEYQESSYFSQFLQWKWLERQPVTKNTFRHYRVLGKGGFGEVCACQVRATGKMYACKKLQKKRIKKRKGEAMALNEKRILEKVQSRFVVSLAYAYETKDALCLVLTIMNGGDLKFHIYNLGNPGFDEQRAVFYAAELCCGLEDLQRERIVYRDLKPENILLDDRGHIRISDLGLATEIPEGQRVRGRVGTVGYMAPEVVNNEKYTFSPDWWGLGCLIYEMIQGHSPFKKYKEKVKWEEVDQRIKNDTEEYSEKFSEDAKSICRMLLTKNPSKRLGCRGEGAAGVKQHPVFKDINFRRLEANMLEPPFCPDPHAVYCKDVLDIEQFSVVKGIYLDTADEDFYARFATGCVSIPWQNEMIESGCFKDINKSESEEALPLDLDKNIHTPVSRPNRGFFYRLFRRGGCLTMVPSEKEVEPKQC
UniProt Q8N568, sequence (whole entry, looked up): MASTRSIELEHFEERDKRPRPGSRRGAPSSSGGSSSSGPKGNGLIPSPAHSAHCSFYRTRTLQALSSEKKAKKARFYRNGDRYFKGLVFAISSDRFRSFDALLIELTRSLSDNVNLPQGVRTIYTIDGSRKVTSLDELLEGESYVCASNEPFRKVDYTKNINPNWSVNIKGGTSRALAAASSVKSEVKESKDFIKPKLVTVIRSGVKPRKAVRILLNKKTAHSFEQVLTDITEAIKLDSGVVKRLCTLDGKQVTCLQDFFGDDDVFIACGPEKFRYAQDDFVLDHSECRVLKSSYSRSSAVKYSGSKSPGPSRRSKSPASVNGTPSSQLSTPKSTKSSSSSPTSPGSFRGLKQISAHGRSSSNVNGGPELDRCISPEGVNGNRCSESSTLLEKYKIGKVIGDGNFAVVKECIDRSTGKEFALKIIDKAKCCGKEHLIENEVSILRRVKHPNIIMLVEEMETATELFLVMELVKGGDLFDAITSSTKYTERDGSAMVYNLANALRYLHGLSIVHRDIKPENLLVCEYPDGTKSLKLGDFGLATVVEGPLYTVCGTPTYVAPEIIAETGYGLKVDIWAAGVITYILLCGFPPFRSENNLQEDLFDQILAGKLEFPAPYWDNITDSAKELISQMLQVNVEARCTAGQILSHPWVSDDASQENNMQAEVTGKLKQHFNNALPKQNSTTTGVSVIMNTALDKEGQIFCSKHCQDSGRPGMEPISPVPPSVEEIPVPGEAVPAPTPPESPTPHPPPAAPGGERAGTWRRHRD

Sample 1 — SMILES: COc1ccc2c(c1)/C(=C/c1cnc[nH]1)C(=O)N2; effect on: enzyme activity; action: inhibitor; tested at: 0.5 µM; relative to: control
target	remaining activity
Discoidin domain-containing receptor 2 (DDR2, Homo sapiens, UniProt Q16832)	95.5%
Dual specificity protein kinase CLK4 (CLK4, Homo sapiens, UniProt Q9HAZ1)	72.6%
G protein-coupled receptor kinase 4 (GRK4, Homo sapiens, UniProt P32298)	93.6%
Tyrosine-protein kinase TXK (TXK, Homo sapiens, UniProt P42681)	93.5%
Dual specificity mitogen-activated protein kinase kinase 1 (MAP2K1, Homo sapiens, UniProt Q02750)	94.8%
Rho-associated protein kinase 1 (ROCK1, Homo sapiens, UniProt Q13464)	96%
Cyclin-dependent kinase 9, with cyclin K (CDK9, Homo sapiens, UniProt P50750)	59.4%
Mitogen-activated protein kinase 14 (MAPK14, Homo sapiens, UniProt Q16539)	97.7%
cGMP-dependent protein kinase 2 (PRKG2, Homo sapiens, UniProt Q13237)	99.7%
Misshapen-like kinase 1 (MINK1, Homo sapiens, UniProt Q8N4C8)	57.9%
Serine/threonine-protein kinase DCLK2 (DCLK2, Homo sapiens, UniProt Q8N568)	96%
Calcium/calmodulin-dependent protein kinase type 1B (PNCK, Homo sapiens, UniProt Q6P2M8)	86.3%
Serine/threonine-protein kinase Nek3 (NEK3, Homo sapiens, UniProt P51956)	87.8%
Serine/threonine-protein kinase PLK3 (PLK3, Homo sapiens, UniProt Q9H4B4)	93%
MAP/microtubule affinity-regulating kinase 4 (MARK4, Homo sapiens, UniProt Q96L34)	37.4%
RAC-beta serine/threonine-protein kinase (AKT2, Homo sapiens, UniProt P31751)	106%
Calcium/calmodulin-dependent protein kinase type IV (CAMK4, Homo sapiens, UniProt Q16566)	97.4%
Mitogen-activated protein kinase 11 (MAPK11, Homo sapiens, UniProt Q15759)	103%
Ribosomal protein S6 kinase alpha-4 (RPS6KA4, Homo sapiens, UniProt O75676)	76.9%
Mitogen-activated protein kinase 1 (MAPK1, Homo sapiens, UniProt P28482)	93.1%
Hepatocyte growth factor receptor (MET, Homo sapiens, UniProt P08581)	103%
Dual specificity protein kinase CLK3 (CLK3, Homo sapiens, UniProt P49761)	103%
Serine/threonine-protein kinase PAK 3 (PAK3, Homo sapiens, UniProt O75914)	99.2%
Myosin-IIIb (MYO3B, Homo sapiens, UniProt Q8WXR4)	88%
Serine/threonine-protein kinase MRCK beta (CDC42BPB, Homo sapiens, UniProt Q9Y5S2)	104%

Sample 2 — cell line: HEK-293T; effect on: pseudovirus infection; technique: FDA-approved drug library counter-screen; organism: VSV pseudotyped with VSV-G; tested at: 10 µM; time: 16 h; relative to: vehicle-treated
Compound	GFP-positive cells [%]
N[C@@H](CC(=O)N1CCn2c(nnc2C(F)(F)F)C1)Cc1cc(F)c(F)cc1F	85
COc1ccc([C@@H]2Sc3ccccc3N(CCN(C)C)C(=O)[C@@H]2OC(C)=O)cc1	108
N#C[C@@H]1C[C@@H]2C[C@@H]2N1C(=O)[C@@H](N)C12CC3CC(CC(O)(C3)C1)C2	109
CC1=C(C(=O)O)N2C(=O)[C@@H](NC(=O)[C@H](N)c3ccc(O)cc3)[C@H]2SC1	91.6
CC(=O)Oc1ccc(C(c2ccc(OC(C)=O)cc2)c2ccccn2)cc1	118
CC(=O)Oc1cc2c(s1)CCN(C(C(=O)C1CC1)c1ccccc1F)C2 (stereo not shown)	92
CCCCCCCCCCCCCCCC[N+](C)(C)CCN(Cc1ccc(OC)cc1)c1ncccn1	106
Nc1ncnc2c1ncn2[C@@H]1O[C@H](CO)[C@@H](O)[C@@H]1O	109
Cc1c(-c2ccccc2)oc2c(C(=O)OCCN3CCCCC3)cccc2c1=O	113
O=C1OC2(c3ccc(O)cc3Oc3cc(O)ccc32)c2ccccc21	111
CC[C@@H](C(N)=O)N1CCCC1=O	100
Cc1ccc(Nc2nccc(N(C)c3ccc4c(C)n(C)nc4c3)n2)cc1S(N)(=O)=O	69.2
CCCNC(C)C(=O)Nc1ccccc1C (stereo not shown)	103
CC1(C)O[C@@H]2[C@@H](CO[C@@]3(COS(N)(=O)=O)OC(C)(C)O[C@@H]23)O1	94.6
CC(=O)OCC(=O)[C@H]1CC[C@H]2[C@@H]3CCC4=CC(=O)CC[C@]4(C)[C@H]3CC[C@]12C	100
c1ccc(CC2=NCCN2)cc1	118

Sample 3 — cell line: HuT78; tested at: 2 µM; time: 48 h; relative to: untreated
Compound	viability
NC(=O)Nc1sc(-c2ccc(F)cc2)cc1C(N)=O	77.7%
C/C(O)=C(\C#N)C(=O)Nc1cc(Br)ccc1Br	116%
CC(C)(C)c1cc(C=C(C#N)C#N)cc(C(C)(C)C)c1O	73%
N#CC(C#N)=Cc1ccc(O)c(O)c1	105%

Sample 4 — organism: Leishmania donovani
Structure (SMILES): c1ccc(Oc2ccc(Nc3c4c(nc5ccccc35)CCC4)cc2)cc1
test	test system	conditions	inhibition
parasite growth	DD8 amphotericin B-resistant, promastigotes	33.33 µM	100% and 99%
parasite growth		8 µM, intracellular, amastigote	74%
parasite killing	DD8, promastigotes	0.016 µM, 24 h	7% and 5%
parasite growth	DD8 amphotericin B-resistant, intracellular amastigotes	0.008 µM	1% and 2%
parasite growth		66.66 µM, promastigote	99%
parasite growth	DD8 amphotericin B-resistant, intracellular amastigotes	0.8 µM	52% and 54% and 59% and 58%
parasite growth	DD8 amphotericin B-resistant, promastigotes	16.66 µM	94% and 81% and 96% and 98% and 99%

Excerpt of the above (sample 1):
target	remaining activity
Rho-associated protein kinase 1 (ROCK1, Homo sapiens, UniProt Q13464)	96%
Cyclin-dependent kinase 9, with cyclin K (CDK9, Homo sapiens, UniProt P50750)	59.4%
Mitogen-activated protein kinase 14 (MAPK14, Homo sapiens, UniProt Q16539)	97.7%
cGMP-dependent protein kinase 2 (PRKG2, Homo sapiens, UniProt Q13237)	99.7%
Misshapen-like kinase 1 (MINK1, Homo sapiens, UniProt Q8N4C8)	57.9%
Serine/threonine-protein kinase DCLK2 (DCLK2, Homo sapiens, UniProt Q8N568)	96%
Calcium/calmodulin-dependent protein kinase type 1B (PNCK, Homo sapiens, UniProt Q6P2M8)	86.3%
